Assay results collected from several papers.
Protocols differ between the studies behind these lines.

CCCC[C@H](NC(=O)[C@@H](NC(=O)[C@H](CC(=O)O)NC(=O)[C@H](CCC(N)=O)NC(=O)[C@H](CC(C)C)NC(=O)[C@H](CC(C)C)NC(=O)[C@H](CCCN)NC(=O)[C@H](CCCNC(=N)N)NC(=O)[C@H](C)NC(=O)[C@H](CO)NC(=O)[C@H](CC(C)C)NC(=O)[C@H](CCC(N)=O)NC(=O)[C@H](CC)NC(=O)[C@H](CC(C)C)NC(=O)[C@@H](NC(=O)[C@H](CCCN)NC(=O)[C@H](CCCNC(=N)N)NC(=O)[C@H](Cc1ccc(O)cc1)NC(=O)[C@H](CO)NC(=O)[C@H](CC(N)=O)NC(=O)[C@@H](NC(=O)[C@H](Cc1ccccc1)NC(=O)[C@@H](NC(=O)[C@H](C)NC(=O)[C@H](CC(=O)O)NC(=O)[C@@H](C)NC(=O)[C@H](Cc1ccc(O)cc1)NC)[C@@H](C)CC)[C@@H](C)O)C(C)C)[C@@H](C)CC)C(=O)N[C@@H](CC(=O)O)C(=O)N[C@@H](CCCNC(=N)N)C(=O)NCC
relative potency (GH release; male rat, serum; subcutaneous, dose not given, 15 min; reference: GHRH(1-29)NH2): 71.2

Cc1ncsc1-c1ccc(C(CO)NC(=O)C2CC(O)CN2C(=O)C(C(C)C)n2cc(-c3ccc(COc4c(-c5c(C)c(F)cc6[nH]ncc56)c(C5CC5)cc5c(N6CC7CC6CN7)nc(OC6CCOCC6)nc45)cc3)nn2)cc1 (stereo not shown)
tumour regression (mouse PK-59 xenograft; intravenous, 30 mg/kg once weekly, day 21): 63%

Cc1ncc2c(n1)CN(C(=O)Nc1nc(-c3cccs3)ccc1N)C2
PSD95 level (immunofluorescence; wild type mouse, hippocampal CA1; dose not given, chronic treatment): no effect

COc1cccc(OCCN2CCC[C@H](CN3CCc4cc(OC)c(OC)cc4CC3=O)C2)c1
burst firing (%SWB) (VTA dopamine neurons, stress-naive male mice; intraperitoneal, 1 mg/kg; reference: baseline): no effect

O=C1c2c(O)cc3oc4cc(O)c(O)cc4c3c2OC1Cc1ccc(O)c(O)c1 (stereo not shown)
EC50 (ABTS scavenging, absorbance): 910 µM

CCOC(=O)c1cc2c(N)c(C(=O)OC)sc2nc1C
water intake (Sprague-Dawley rats; subcutaneous, 100 mg/kg every 8 h, long-term dosing): increased

CCCC[C@H](NC(=O)[C@@H](NC(=O)[C@H](CC(=O)O)NC(=O)[C@H](CCC(N)=O)NC(=O)[C@H](CC(C)C)NC(=O)[C@H](CC(C)C)NC(=O)[C@H](CCCN)NC(=O)[C@H](CCCNC(=N)N)NC(=O)[C@H](C)NC(=O)[C@H](CO)NC(=O)[C@H](CC(C)C)NC(=O)[C@H](CCC(N)=O)NC(=O)[C@H](CC)NC(=O)[C@H](CC(C)C)NC(=O)[C@@H](NC(=O)[C@H](CCCN)NC(=O)[C@H](CCCNC(=N)N)NC(=O)[C@H](Cc1ccc(O)cc1)NC(=O)[C@H](CO)NC(=O)[C@H](CCC(N)=O)NC(=O)[C@@H](NC(=O)[C@H](Cc1ccccc1)NC(=O)[C@@H](NC(=O)[C@H](C)NC(=O)[C@H](CC(=O)O)NC(=O)[C@@H](C)NC(=O)[C@H](Cc1ccc(O)cc1)N(C)C(C)=O)[C@@H](C)CC)[C@@H](C)O)C(C)C)[C@@H](C)CC)C(=O)N[C@@H](CC(=O)O)C(=O)NCCCCNC(=N)N
relative potency (GH release; rat, male, serum; subcutaneous, 3 µg/kg, 15 min; reference: reference GHRH agonist JI-38): 0.3

Cc1ccccc1-c1cc(N2CCN(C(=O)CCC(=O)O)CC2)ccc1N(C)C(=O)C(C)(C)c1cc(C(F)(F)F)cc(C(F)(F)F)c1
duration of antinociception (mechanical allodynia, antagonist, von Frey test; hNK1R-407 mice; intrathecal, 5 µL, 30 nM, with: capsaicin): 6 h

CCCCCCCCCCCCCCCC(=O)OCC(CSC[C@H](N)C(=O)N[C@@H](CO)C(=O)N[C@@H](CCCCN)C(=O)N[C@@H](CCCCN)C(=O)N[C@@H](CCCCN)C(=O)N[C@@H](CCCCN)C(=O)NCCCCCC(=O)N[C@@H](CCCCN)C(=O)N[C@@H](CC(C)C)C(=O)N[C@H](C(=O)N[C@@H](Cc1ccccc1)C(=O)N[C@@H](Cc1ccccc1)C(=O)N[C@@H](Cc1ccc2ccccc2c1)C(=O)O)C(C)C)OC(=O)CCCCCCCCCCCCCCC (stereo partly shown)
OC-positive plaque area (APP/PS1 mouse; intracortical, dose not given, 5 d; reference: vehicle): decreased

C[C@@H](O)[C@@H]1NC(=O)[C@H](CCCCN)NC(=O)[C@@H](Cc2ccc(NC(N)=O)cc2)NC(=O)[C@H](Cc2ccc(NC(=O)[C@@H]3CC(=O)NC(=O)N3)cc2)NC(=O)[C@H](NC(=O)[C@H](Cc2ccc(Cl)cc2)NC(=O)CN2CCN(CC(=O)O)CCN(CC(=O)O)CCN(CC(=O)O)CC2)CSSC[C@@H](C(=O)N[C@H](Cc2ccc(O)cc2)C(N)=O)NC1=O [gallium-68 labelled]
SUVmax (PET/CT; human neuroendocrine tumour patients, lung lesions; 60 min): 17

For quick reference, copied from above:
Cc1ncc2c(n1)CN(C(=O)Nc1nc(-c3cccs3)ccc1N)C2
PSD95 level (immunofluorescence; wild type mouse, hippocampal CA1; dose not given, chronic treatment): no effect
